Results from different studies.
Every numbered part comes from another study and shows a few of its results, in no order. Substitutions count along the parent as printed.

Block 1
Substance: PhoQ, residues 284 288 289 292 302 303 TTCLQL
Technique: Sort-seq
Refers to: YFP reporter
Medium: E. coli
Setting: PhoQ-PhoP variant library
Together with: 10 µM Mg2+
Baseline: high Mg2+ state
Direction: higher = stronger signaling
| target | fold induction |
| --- | --- |
| PhoP, residues 12 14 15 18 19 VGHWL (Escherichia coli, UniProt P23836) | 2.15 |
| PhoP, residues 12 14 15 18 19 TPWTL (Escherichia coli, UniProt P23836) | 1.2 |
| PhoP, residues 12 14 15 18 19 NFFVT (Escherichia coli, UniProt P23836) | 8.28 |

Block 2
Target: ABI1, truncated, D143A, DHFR fusion (Arabidopsis thaliana)
Technique: DHFR PCA, deep sequencing
Medium: yeast
Setting: methotrexate growth selection, single substitutions
Together with: (+)-ABA 17 µM
Baseline: wild-type fitted maximum
Direction: higher = stronger binding
Parent: PYL1, truncated, DHFR fusion (Arabidopsis thaliana); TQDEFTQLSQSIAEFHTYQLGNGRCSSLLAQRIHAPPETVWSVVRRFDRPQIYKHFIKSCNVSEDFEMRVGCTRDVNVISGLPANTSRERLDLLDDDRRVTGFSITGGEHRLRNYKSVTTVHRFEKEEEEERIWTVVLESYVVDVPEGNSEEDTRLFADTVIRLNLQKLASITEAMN
| Substitution | relative binding score |
| --- | --- |
| Y115T | 15.3% |
| V161N | 4.6% |
| F15T | 13.1% |
| D95I | 34.7% |
| V40L | -0.803% |
| D153V | 0.521% |
| G108P | 0.331% |
| T1F | 81% |
| T106Y | 81.5% |
| G102M | 27.8% |
| L82T | 1.95% |
| S26W | 61.9% |
| C60R | 7.04% |
| H122E | 45.5% |
| H110M | 13.6% |
| S140C | -4.03% |
| N149G | 33.9% |
| E131A | 86.4% |
| M68L | 95.3% |
| W41D | 0.0975% |
| L169I | -31.1% |
| W134C | 97.5% |
| Q19C | 72% |
| Q31L | 17% |
| L29R | 42.8% |

Block 3
Target: Sal-like protein 4, full length isoform A (SALL4, Homo sapiens, UniProt Q9UJQ4, residues 1-1053)
Sequence of UniProt Q9UJQ4 (whole entry, looked up): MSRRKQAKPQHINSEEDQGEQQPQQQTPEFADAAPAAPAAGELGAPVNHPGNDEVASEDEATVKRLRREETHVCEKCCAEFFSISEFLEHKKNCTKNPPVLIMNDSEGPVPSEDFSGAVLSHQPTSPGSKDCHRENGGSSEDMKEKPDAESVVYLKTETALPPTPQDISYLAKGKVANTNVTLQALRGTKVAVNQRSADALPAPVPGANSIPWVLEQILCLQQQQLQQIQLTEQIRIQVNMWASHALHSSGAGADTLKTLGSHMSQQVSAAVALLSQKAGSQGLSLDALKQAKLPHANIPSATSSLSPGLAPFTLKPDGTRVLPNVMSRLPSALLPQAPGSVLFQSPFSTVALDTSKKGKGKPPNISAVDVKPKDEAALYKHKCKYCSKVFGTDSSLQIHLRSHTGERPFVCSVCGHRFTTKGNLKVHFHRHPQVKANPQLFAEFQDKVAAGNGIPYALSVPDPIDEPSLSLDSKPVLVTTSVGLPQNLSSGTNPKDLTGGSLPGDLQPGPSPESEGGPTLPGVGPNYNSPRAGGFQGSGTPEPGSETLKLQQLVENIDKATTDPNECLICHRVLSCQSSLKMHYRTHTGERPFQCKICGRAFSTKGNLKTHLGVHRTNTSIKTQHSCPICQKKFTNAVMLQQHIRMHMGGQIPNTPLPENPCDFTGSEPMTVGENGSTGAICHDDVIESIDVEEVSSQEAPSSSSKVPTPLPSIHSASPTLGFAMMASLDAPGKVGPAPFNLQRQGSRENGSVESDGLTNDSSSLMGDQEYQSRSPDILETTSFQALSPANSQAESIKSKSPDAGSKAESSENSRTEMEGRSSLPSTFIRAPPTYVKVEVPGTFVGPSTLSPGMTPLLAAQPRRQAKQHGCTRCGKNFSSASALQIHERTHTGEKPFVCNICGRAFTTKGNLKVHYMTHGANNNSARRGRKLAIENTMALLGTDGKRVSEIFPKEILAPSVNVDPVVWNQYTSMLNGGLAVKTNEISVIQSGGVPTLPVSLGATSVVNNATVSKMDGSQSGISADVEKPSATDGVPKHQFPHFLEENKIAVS
Technique: universal PBM
Molecule type: double-stranded DNA, one strand shown
Medium: in vitro
Concentration: 600 nM
Setting: 8-mer, flanks averaged, mean of replicates
Direction: higher = stronger binding
| Sequence | E-score |
| --- | --- |
| AATGGAGA | 0.0115 |
| TCGTCACA | 0.0452 |
| ATAGAGAG | 0.0341 |
| AAATTTCC | 0.109 |
| CTGTGGAC | -0.151 |
| CGACCGAG | -0.339 |
| AAAATGGG | 0.192 |
| ATGTGCGG | -0.138 |
| ACAGACTA | 0.0108 |
| GAACTTAA | 0.0122 |
| CCACAATA | 0.134 |
| TAACGGAA | 0.0691 |
| CGCTAGTC | -0.227 |
| GTAGTGGA | 0.0694 |
| AGTCTCGA | -0.0272 |
| TTGAACAA | 0.139 |
| GCCCCACA | -0.285 |
| CGTGCCAC | -0.303 |
| TCACTGCA | 0.123 |
| CATAACAG | 0.127 |
| TATCCCCA | 0.0698 |
| AAGATCCA | -0.141 |
| AGGTGTCC | -0.225 |
| GACGGCCC | -0.386 |
| GTAGCTGA | -0.111 |

Block 4
Target: CCND3, cyclin fold, Cln2 fusion (human)
Technique: yeast growth competition, sequencing
Medium: yeast
Setting: weak parent motif
Baseline: not given
Direction: higher = stronger binding
Parent: CDKN1B docking peptide (human); PSACRNLFGPVDH
| Substitution | normalised enrichment score |
| --- | --- |
| P1H | 0.156 |
| P1G | 0.11 |
| R5P | 0.098 |
| C4G | 0.058 |
| L7G | 0.0998 |
| C4V | 0.0756 |
| N6K | 0.197 |
| S2L | 0.112 |
| D12R | 0.12 |
| N6V | 0.154 |
| P10A | 0.0411 |
| A3M | 0.143 |
| R5H | 0.116 |
| S2E | 0.103 |
| C4P | 0.135 |
| P1N | 0.0851 |
| P1F | 0.141 |

Block 5
Target: Prothrombin, mature alpha-thrombin (F2, Homo sapiens, UniProt P00734)
Technique: aptamer microarray, sandwich
Molecule type: DNA with 2'F-ANA
Medium: in vitro
Concentration: 200 nM
Setting: whole 15-mer aptamer, many near background
Together with: Cy3 exosite-II aptamer, 400 nM
Direction: higher = stronger binding
Sequence: GGTTGGTGTGGTTGG
| Modification | mean fluorescence intensity |
| --- | --- |
| 2'F-ANA at 1 2 3 6 7 9 10 11 12 13 | 108 a.u. |
| 2'F-ANA at 2 3 6 7 8 10 11 12 15 | 343 a.u. |
| 2'F-ANA at 3 5 7 8 11 12 13 14 15 | 89.8 a.u. |
| 2'F-ANA at 1 2 4 5 6 10 13 15 | 53.9 a.u. |
| 2'F-ANA at 5 8 13 14 | 46 a.u. |
| 2'F-ANA at 3 7 9 11 13 14 | 540 a.u. |
| 2'F-ANA at 3 4 5 8 10 15 | 65.6 a.u. |
| 2'F-ANA at 1 4 5 6 8 9 12 13 14 | 49.3 a.u. |
| 2'F-ANA at 2 3 5 6 7 9 14 15 | 194 a.u. |
| 2'F-ANA at 1 3 4 5 6 7 9 10 11 12 | 50.6 a.u. |
| 2'F-ANA at 1 3 4 7 9 11 13 | 131 a.u. |
| 2'F-ANA at 3 4 5 6 7 9 10 | 64.5 a.u. |
| 2'F-ANA at 2 3 4 7 10 11 15 | 232 a.u. |
| 2'F-ANA at 2 3 12 13 14 | 486 a.u. |
| 2'F-ANA at 2 5 6 7 8 11 13 15 | 61.7 a.u. |
| 2'F-ANA at 1 2 3 6 8 12 13 15 | 387 a.u. |
| 2'F-ANA at 1 2 5 8 11 12 13 15 | 72.2 a.u. |
| 2'F-ANA at 1 2 4 6 7 8 10 11 14 | 45.6 a.u. |
| 2'F-ANA at 1 2 3 6 7 8 9 13 14 15 | 71 a.u. |
| 2'F-ANA at 2 6 8 9 10 12 15 | 146 a.u. |
| 2'F-ANA at 1 2 7 10 11 15 | 51.2 a.u. |
| 2'F-ANA at 1 5 6 8 10 11 | 67.1 a.u. |

A few entries again (block 4):
| Substitution | normalised enrichment score |
| --- | --- |
| L7G | 0.0998 |
| C4V | 0.0756 |
| N6K | 0.197 |
| S2L | 0.112 |
| D12R | 0.12 |
| N6V | 0.154 |
| P10A | 0.0411 |
| A3M | 0.143 |
| R5H | 0.116 |
| S2E | 0.103 |
| C4P | 0.135 |
| P1N | 0.0851 |
| P1F | 0.141 |
